Experimental data gathered from unrelated publications.
Lines come from different studies, so protocols differ. Numbers after ± are the reported error.
Cell line: SW480

CC(C)=CCc1c2c(c(O)c3c(=O)c(-c4ccc(O)cc4)coc13)CC(C(C)(C)O)O2 (stereo not drawn) has an IC50 of 39.1 µM (cell growth or viability, MTT).
C[O][Pt-2]1([Cl])([Cl])([O]C(=O)CCC(=O)OCCO)[NH2+]CC[N+]1(C)C gave an IC50 of 9.4 µM (cell growth or viability, MTT; 96 h).
COc1c(O)cc2oc3cc(O)c(CC=C(C)C)c(O)c3c(=O)c2c1CC=C(C)C has an IC50 of 14.5 µM (cell growth or viability; 48 h).
The IC50 of Cc1ccc(C(C)C)cc1.Cc1ncc(CO)c(C=NNC2=Nc3ccccc3-c3[nH]c4ccc(Br)cc4c3C2)c1O.[Cl-].[Cl][Ru+] is reported as 1.8 µM (cell growth or viability, MTT; 96 h).
The IC50 of COc1c(O)cc2oc3cc4c(c(O)c3c(=O)c2c1CC=C(C)C)CC(O)O4 (stereo not drawn) is reported as 18.2 µM (cell growth or viability; 48 h).
The IC50 of Cc1ccc(C(C)C)cc1.Oc1ccccc1C=NNC1=Nc2ccccc2-c2[nH]c3ccc(Br)cc3c2C1.[Cl-].[Cl][Ru+] is reported as 0.64 µM (cell growth or viability, MTT; 96 h).
COc1c(OC(C)=O)cc2oc3cc(OC(C)=O)c(CC=C(C)C)c(O)c3c(=O)c2c1CC=C(C)C gave an IC50 of 16.2 µM (cell growth or viability; 48 h).
With C[N+]1(C)CC[NH2+][Pt-2]1([OH])([Cl])([Cl])[O]C(=O)CCC(=O)OCCO the IC50 was 77 µM (cell growth or viability, MTT; 96 h).
COc1ccc(-c2coc3c(CC=C(C)C)c(O)c(CC=C(C)C)c(O)c3c2=O)cc1O gave an IC50 of 72.7 µM (cell growth or viability, MTT).
With C[N+]1(C)CC[NH2+][Pt-2]1([OH])([Cl])([Cl])[O]C(=O)CCC(=O)OCCOC(=O)CCC(=O)[O][Pt-2]1([OH])([Cl])([Cl])[NH2+]CC[N+]1(C)C the IC50 was 84 µM (cell growth or viability, MTT; 96 h).
For COc1cc(/C=C/C(=O)NCCCCCCNC2=C3C[C@@H](C)C[C@H](OC)[C@H](O)[C@@H](C)/C=C(\C)[C@H](OC(N)=O)[C@@H](OC)/C=C\C=C(/C)C(=O)NC(=CC2=O)C3=O)ccc1O, the IC50 was 0.873 µM (cell growth or viability, MTT; 72 h).
The IC50 of COc1c(O)cc2oc3c(Cl)c(O)c(CC=C(C)C)c(O)c3c(=O)c2c1CC=C(C)C is reported as over 40 µM (cell growth or viability; 48 h).
For N[C@@H]1CCCC[C@H]1N.O=C1[O][Pt]2([O]C1=O)[O]C(=O)C(=O)[O]2, the IC50 was 14 ± 3 µM (cell viability, MTT; 96 h).
COC(=O)CCC(=O)[O][Pt-2]1([OH])([Cl])([Cl])[NH2+]CC[N+]1(C)C gave an IC50 of 8.4 µM (cell growth or viability, MTT; 96 h).
For CC(C)CCc1c(O)cc2oc3cc(O)c(O)c(CCC(C)C)c3c(=O)c2c1O, the IC50 was 11.6 µM (cell growth or viability; 48 h).
